Published values collected from several papers.
Several values in a cell are separate wells, animals, samples, runs or records. ± gives the spread as reported.
PLCG2 residues 1-1195: 1-phosphatidylinositol 4,5-bisphosphate phosphodiesterase gamma-2, residues 1-1195 (PLCG2, Homo sapiens, UniProt P16885)
Sequence of UniProt P16885 (1-1195, looked up): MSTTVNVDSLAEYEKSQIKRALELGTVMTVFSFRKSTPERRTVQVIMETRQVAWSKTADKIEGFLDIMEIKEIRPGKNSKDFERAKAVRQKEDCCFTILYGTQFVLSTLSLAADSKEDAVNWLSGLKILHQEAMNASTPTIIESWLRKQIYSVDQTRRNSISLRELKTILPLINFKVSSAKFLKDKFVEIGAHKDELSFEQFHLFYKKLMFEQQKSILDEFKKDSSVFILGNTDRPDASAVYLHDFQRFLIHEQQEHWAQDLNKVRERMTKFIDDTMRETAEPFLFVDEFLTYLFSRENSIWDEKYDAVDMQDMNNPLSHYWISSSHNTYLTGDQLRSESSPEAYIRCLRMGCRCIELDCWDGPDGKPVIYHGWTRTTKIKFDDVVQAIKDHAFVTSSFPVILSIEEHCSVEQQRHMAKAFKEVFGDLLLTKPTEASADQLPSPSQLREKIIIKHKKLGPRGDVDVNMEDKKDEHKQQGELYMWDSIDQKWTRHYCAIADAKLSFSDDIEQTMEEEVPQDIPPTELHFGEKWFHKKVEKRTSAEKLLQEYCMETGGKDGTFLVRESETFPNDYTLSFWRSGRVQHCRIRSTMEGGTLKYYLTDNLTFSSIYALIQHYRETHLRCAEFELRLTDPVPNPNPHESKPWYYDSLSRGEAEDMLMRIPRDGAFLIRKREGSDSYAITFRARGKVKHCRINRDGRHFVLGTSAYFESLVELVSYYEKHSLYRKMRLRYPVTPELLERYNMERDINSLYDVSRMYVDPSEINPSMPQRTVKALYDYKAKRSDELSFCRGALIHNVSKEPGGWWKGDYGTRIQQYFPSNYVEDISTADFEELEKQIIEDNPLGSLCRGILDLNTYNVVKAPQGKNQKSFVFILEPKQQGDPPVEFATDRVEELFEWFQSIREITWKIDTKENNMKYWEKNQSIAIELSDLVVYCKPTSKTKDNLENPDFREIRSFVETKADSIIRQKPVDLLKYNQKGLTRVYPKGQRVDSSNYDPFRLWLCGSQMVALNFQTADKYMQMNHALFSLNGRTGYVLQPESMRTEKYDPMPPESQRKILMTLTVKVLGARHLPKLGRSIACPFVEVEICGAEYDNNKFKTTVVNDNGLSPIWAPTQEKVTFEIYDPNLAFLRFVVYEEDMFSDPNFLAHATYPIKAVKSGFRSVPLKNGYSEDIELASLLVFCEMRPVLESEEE
GBA2: Beta-glucosidase (GBA2, Homo sapiens, UniProt Q9HCG7)
Sequence of UniProt Q9HCG7 (whole entry, looked up): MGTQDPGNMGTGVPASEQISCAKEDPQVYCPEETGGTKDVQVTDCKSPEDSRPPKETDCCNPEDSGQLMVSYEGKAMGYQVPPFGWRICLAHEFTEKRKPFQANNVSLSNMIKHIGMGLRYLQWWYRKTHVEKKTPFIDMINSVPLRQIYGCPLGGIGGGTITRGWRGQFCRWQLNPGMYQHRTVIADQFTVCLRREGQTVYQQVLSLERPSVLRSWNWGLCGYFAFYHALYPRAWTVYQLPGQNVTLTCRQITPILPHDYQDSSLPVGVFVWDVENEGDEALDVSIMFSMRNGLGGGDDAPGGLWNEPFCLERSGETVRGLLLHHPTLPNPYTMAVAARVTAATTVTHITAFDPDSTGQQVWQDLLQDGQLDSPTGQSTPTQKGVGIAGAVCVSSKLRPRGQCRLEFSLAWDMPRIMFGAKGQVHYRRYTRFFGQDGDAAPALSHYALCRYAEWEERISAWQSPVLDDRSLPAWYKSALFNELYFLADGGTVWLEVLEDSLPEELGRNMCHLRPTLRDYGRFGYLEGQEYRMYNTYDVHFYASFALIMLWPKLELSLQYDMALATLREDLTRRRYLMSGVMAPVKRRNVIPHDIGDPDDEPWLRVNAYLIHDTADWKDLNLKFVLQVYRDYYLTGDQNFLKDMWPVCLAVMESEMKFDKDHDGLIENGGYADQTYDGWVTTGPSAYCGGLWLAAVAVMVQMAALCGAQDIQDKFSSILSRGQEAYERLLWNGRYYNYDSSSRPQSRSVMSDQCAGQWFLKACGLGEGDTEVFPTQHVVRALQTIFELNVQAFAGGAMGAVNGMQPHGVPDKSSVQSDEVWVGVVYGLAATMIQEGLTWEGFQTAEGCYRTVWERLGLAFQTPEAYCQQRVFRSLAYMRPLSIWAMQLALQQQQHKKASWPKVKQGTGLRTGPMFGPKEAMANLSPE
MTNR1A: Melatonin receptor type 1A (MTNR1A, Homo sapiens, UniProt P48039)
Sequence of UniProt P46089 (whole entry, unmodified, looked up): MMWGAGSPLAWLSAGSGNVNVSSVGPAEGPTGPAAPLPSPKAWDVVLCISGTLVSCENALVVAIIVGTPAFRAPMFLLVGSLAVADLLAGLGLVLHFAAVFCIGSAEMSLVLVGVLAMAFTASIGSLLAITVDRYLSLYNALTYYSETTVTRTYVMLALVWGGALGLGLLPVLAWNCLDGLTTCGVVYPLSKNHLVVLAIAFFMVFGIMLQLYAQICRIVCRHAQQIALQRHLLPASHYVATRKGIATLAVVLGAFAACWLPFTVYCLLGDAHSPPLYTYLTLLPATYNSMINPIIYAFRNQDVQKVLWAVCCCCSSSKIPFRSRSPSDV
Sequence of UniProt P48039 (whole entry, looked up): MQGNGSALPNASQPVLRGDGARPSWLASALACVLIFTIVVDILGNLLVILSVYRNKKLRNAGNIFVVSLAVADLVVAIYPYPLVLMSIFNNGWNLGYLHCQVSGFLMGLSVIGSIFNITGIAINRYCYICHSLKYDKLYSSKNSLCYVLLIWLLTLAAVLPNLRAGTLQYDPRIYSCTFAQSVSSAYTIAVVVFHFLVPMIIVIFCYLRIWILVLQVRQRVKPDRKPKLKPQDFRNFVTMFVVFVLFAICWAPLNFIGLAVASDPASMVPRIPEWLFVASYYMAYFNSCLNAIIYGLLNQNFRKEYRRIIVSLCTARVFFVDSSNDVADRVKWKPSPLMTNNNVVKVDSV
Sequence of UniProt Q9UI10 (whole entry, looked up): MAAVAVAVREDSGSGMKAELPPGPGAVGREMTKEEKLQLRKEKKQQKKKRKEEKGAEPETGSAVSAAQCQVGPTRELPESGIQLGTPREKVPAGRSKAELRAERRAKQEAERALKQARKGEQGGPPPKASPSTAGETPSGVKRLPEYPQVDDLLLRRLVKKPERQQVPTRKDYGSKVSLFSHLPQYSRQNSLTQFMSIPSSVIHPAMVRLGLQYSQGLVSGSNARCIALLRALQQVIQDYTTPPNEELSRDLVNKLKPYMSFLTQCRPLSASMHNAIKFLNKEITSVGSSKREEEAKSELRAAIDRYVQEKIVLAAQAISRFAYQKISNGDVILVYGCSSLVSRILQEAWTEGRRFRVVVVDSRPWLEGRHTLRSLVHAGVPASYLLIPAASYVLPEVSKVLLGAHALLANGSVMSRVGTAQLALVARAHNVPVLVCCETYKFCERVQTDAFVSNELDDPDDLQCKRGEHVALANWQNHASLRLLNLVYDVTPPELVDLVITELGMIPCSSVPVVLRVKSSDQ
Sequence of UniProt Q704Y3 (whole entry, unmodified, looked up): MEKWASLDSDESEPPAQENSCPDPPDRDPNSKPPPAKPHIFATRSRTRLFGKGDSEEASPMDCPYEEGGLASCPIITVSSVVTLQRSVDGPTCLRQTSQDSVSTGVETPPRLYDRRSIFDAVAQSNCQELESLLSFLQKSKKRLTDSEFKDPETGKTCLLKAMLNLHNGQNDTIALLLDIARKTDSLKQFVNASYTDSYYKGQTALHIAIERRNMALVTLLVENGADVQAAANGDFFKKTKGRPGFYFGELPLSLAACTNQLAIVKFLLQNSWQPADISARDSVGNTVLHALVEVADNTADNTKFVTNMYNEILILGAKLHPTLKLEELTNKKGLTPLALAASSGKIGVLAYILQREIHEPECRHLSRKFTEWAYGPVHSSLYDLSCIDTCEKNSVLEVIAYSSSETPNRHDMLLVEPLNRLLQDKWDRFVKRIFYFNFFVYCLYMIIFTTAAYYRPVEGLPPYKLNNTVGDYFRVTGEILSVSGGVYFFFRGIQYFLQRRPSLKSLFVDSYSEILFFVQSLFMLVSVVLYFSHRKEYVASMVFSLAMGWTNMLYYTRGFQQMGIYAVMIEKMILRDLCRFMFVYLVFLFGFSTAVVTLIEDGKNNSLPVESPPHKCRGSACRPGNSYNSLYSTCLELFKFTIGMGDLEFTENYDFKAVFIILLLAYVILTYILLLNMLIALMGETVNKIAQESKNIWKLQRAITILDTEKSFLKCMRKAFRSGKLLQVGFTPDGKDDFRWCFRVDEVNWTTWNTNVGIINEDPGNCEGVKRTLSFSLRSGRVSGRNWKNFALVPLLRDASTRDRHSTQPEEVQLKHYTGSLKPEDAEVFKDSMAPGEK
Sequence of UniProt Q16740 (whole entry, unmodified, looked up): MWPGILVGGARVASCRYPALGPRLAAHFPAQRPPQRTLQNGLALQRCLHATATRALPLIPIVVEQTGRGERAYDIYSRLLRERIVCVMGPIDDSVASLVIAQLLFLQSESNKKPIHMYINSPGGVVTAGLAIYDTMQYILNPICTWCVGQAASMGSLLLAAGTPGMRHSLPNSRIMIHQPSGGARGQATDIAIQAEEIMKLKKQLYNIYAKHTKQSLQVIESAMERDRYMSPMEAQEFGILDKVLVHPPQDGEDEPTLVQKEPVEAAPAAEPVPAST
Sequence of UniProt Q8TDU9 (whole entry, unmodified, looked up): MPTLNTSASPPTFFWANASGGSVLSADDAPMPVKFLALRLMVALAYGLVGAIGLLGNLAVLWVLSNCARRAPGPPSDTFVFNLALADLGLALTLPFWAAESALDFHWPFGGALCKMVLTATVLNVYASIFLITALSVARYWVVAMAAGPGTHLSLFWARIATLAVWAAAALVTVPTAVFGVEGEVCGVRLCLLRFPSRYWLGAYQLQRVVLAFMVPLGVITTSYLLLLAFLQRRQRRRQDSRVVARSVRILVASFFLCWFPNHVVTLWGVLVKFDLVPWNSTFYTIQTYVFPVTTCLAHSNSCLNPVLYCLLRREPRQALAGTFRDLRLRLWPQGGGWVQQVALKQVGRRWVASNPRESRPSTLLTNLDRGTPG
Sequence of UniProt P35625 (whole entry, looked up): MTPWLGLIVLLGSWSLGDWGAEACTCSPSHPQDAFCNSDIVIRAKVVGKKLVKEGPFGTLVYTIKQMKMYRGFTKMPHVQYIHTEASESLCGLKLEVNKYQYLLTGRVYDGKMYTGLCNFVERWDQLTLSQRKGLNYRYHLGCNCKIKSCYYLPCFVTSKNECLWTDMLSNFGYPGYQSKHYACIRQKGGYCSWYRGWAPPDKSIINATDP

SMILES	target or system	test	system	setting	how to read	quantity	value
CC[C@H](C)[C@H]1C(=O)N(Cc2cc3ccccc3c3ccccc23)C[C@@H]2N(C(=O)NCCCC(F)(F)F)CCC(=O)N12	CLPP (Homo sapiens, UniProt Q16740, H116Y)	activator	–	–	–	EC50	10400 ± 2300 nM
CC(=O)N[C@@H]1[C@@H](O[C@@H]2O[C@H](C(=O)O)[C@@H](O[C@@H]3O[C@H](COS(=O)(=O)O)[C@@H](OS(=O)(=O)O)[C@H](O[C@@H]4O[C@H](C(=O)O)[C@@H](O[C@@H]5O[C@H](COS(=O)(=O)O)[C@@H](OS(=O)(=O)O)[C@H](O[C@@H]6O[C@H](C(=O)O)[C@@H](OS(=O)(=O)O)[C@H](OS(=O)(=O)O)[C@H]6OS(=O)(=O)O)[C@H]5NC(C)=O)[C@H](OS(=O)(=O)O)[C@H]4OS(=O)(=O)O)[C@H]3NC(C)=O)[C@H](OS(=O)(=O)O)[C@H]2OS(=O)(=O)O)[C@H](OS(=O)(=O)O)[C@@H](COS(=O)(=O)O)O[C@H]1N=[N+]=[N-]	Metalloproteinase inhibitor 3 (Homo sapiens, UniProt P35625)	probe displacement, FP competition	–	protein 67 nM, with: TAMRA-labelled sHA tetramer probe	–	EC50	1650 ± 119 nM
COc1ccc2c(c1)CC[C@@H]1[C@@H]2CC[C@]2(C)[C@@H](NCCCCCCN3C(=O)C=CC3=O)CC[C@@H]12	PLCG2 residues 1-1195	enzyme activity, activator	lipid vesicles	15 min preincubation, with: XY-69 substrate 0.5 µM	–	EC50	2400 nM
OC[C@H]1N[C@H](CCCCOCC23CC4CC(CC(C4)C2)C3)[C@H](O)[C@@H](O)[C@@H]1O	GBA2	inhibitor, 4MU-β-D-glucopyranoside	HEK293T homogenates overexpressing GBA2	–	–	IC50	68 nM
COC1CN([C@H]2CC[C@H]([C@@]3(C)Oc4c(Cl)cc(C(=O)NCc5c(SC)cc(C)[nH]c5=O)c(C)c4O3)CC2)C1	–	RNA-seq, refers to: ARFGEF3	human, whole blood	dose not given, 24 h	baseline: pretreatment baseline	log2 fold change	5.86
O=C(Nn1c(-c2cccc(Cl)c2)nc2ccccc2c1=O)c1ccccc1F	TRPM channel TRPM_PZQ (Schistosoma mansoni, UniProt A0A5K4F0X5)	whole-cell inward current, activator, automated patch clamp	HEK293	–	–	EC50	2200 ± 340 nM
CC(C)Oc1cc(Cl)ccc1CNc1cc(-c2ccccc2)nc2ncnn12	GPR3 (Homo sapiens, UniProt P46089, V196W)	cAMP level, agonist, GloSensor	–	receptor V196W mutant	–	EC50	3630 nM and 3310 nM and 2140 nM and 4900 nM
O=C(NC[C@@H](Cc1ccc(F)cc1)N1CCC(O)(C(F)(F)F)CC1)C1(c2ccc(Cl)cc2)CCCC1	TRPA1 (Homo sapiens, UniProt O75762, M912L)	–	–	–	–	EC50	24 nM
CCCn1c(=O)c2cc(F)ccc2n2c(=S)[nH]nc12	PLCG2 residues 1-1195	enzyme activity, activator	lipid vesicles	15 min preincubation, with: XY-69 substrate 0.5 µM	–	EC50	27000 nM
COc1cc(C2C(NC(=O)c3ccc(NC(=O)OC(C)(C)C)cc3)(C(=O)O)C(c3ccc(OC(=O)c4cccs4)c(OC)c3)C2(NC(=O)c2ccc(NC(=O)OC(C)(C)C)cc2)C(=O)O)ccc1OC(=O)c1cccs1 (centres unmarked)	GLP1R (Homo sapiens, UniProt P43220, L144A)	cAMP, agonist	–	–	–	EC50	166 nM
Cn1c(=O)n(C2CCC(=O)NC2=O)c2ccc(C3CCN(CC(=O)Nc4cccc(CS(=O)(=O)N5CC[C@H](Nc6cccc(-c7sc(C(=O)O)c(OCC(=O)O)c7Cl)c6)CC5(C)C)c4)CC3)cc21 (some centres unmarked)	PTPN7 (Homo sapiens, UniProt P35236)	phosphatase activity	–	with: DiFMUP substrate	–	EC50	> 10000 nM
CC(=O)N(C)Cc1cccc(-c2cc3c(c(C(F)(F)F)c2)CCCC3N(C)C(=O)COC[C@@H]2CCNC[C@@H]2F)c1 (mixture of isomers)	Translation initiation factor eIF2B subunit beta/Translation initiation factor eIF2B subunit delta, with phospho-eIF2α NTD (Homo sapiens, UniProt P49770+Q9UI10)	phospho-eIF2α NTD dissociation, BLI	–	–	–	EC50	7900 nM
Nc1ncnc2c1ncn2[C@@H]1O[C@H](COP(=O)(O)OP(=O)(O)OC[C@H]2OC(O)[C@H](O)[C@@H]2O)[C@@H](O)[C@H]1OP(=O)(O)O (some centres unmarked)	TRPM2 (Nematostella vectensis, UniProt A7T1N0, E444C)	agonist	–	–	–	EC50	160 ± 10 nM
Cc1nn(-c2cccc(N)c2)c(=O)c2cnc(Nc3ccc(N4CCNCC4)cc3)nc12	CHEK1 (Homo sapiens, UniProt O14757)	enzyme activity, inhibitor	–	–	–	IC50	> 10000 nM
COc1cc(I)c(Cc2cc(OC)c(OC)cc2CC(=O)OC(C)(C)C)cc1OC	MTNR1A	GTPγS binding, agonist, radiometric	–	cell membranes	–	EC50	9330 nM
CCCCCCCC/C=C\CCCCCCCC(=O)NCCO	Trpv1 (Mus musculus, UniProt Q704Y3, T557S)	ion current, agonist, whole-cell patch clamp	–	24 °C, T557S, +80 mV	–	EC50	530 ± 260 nM
CC1=NC(C)C(C)S1 (centres unmarked)	Olfactory receptor 5K16 (Or5k16, Mus musculus, UniProt Q7TS48)	cAMP, agonist	HEK293 transfected with Or5k16	–	–	EC50	361000 ± 41500 nM
CCc1cc(O)cc2c(/C=N/NC(=N)NCCc3ccc(Cl)cc3)c[nH]c12	RXFP4 (Homo sapiens, UniProt Q8TDU9, L118A/V122A)	agonist	–	–	–	EC50	3.8 nM
CCOC(=O)Nc1ccc(NCc2ccc(F)cc2)nc1N	PLCG2 residues 1-1195	enzyme activity, activator	lipid vesicles	15 min preincubation, with: XY-69 substrate 0.5 µM	–	EC50	14000 nM
CC[C@H]([C@@H](C)c1ccc(O)cc1)[C@@H](CC)c1ccc(O)cc1	Estrogen receptor (ESR1, Homo sapiens, UniProt P03372)	reporter gene, luciferase reporter (3xERE)	293T	24 h	–	EC50	14.7 nM
CC(C)(C(=O)N1CCC(Nc2nc3c(c(=O)[nH]2)CCCC3)CC1)c1ccc(Cl)cc1	MRGPRD, part with Gi1 (Homo sapiens, UniProt Q8TDS7)	Gi1 dissociation, agonist, BRET2	–	–	–	EC50	10.2 nM
C=CC(=O)Nc1cccc(Cn2ncc3cnc(Nc4cnn(CCOC)c4)nc32)c1	human LOK	KINOMEscan	–	100 nM	–	binding	100%
CC(C)COCCCCCN1C[C@H](O)[C@@H](O)[C@H](O)[C@H]1CO	GBA2	inhibitor, 4MU-β-D-glucopyranoside	HEK293T homogenates overexpressing GBA2	–	–	IC50	0.9 nM
COc1ccc2[nH]c(-c3cccc4ccccc34)c(CCNC(=O)CI)c2n1	MTNR1A	cAMP, agonist, TR-FRET	–	–	–	EC50	3310 nM
Cc1c(C)c2ccc[n+]3c2c2c1ccc[n+]2[Ir-3]312([c]3ccccc3-c3ccc4ccc(Cl)cc4[n+]31)[c]1ccccc1-c1ccc3ccc(Cl)cc3[n+]12.F[P-](F)(F)(F)(F)F	Cyclin-dependent kinase 9, with cyclin T1 (CDK9, Homo sapiens, UniProt P50750)	enzyme activity	–	–	–	EC50	355 ± 11.8 nM
COc1ccc(C(=O)c2c(C(=O)NCCCN(C)C)oc3ccc(Cl)cc3c2=O)cc1OC	GHSR (Homo sapiens, UniProt Q92847, E197A)	Gαq dissociation, TRUPATH BRET	HEK293T	–	–	EC50	525 nM
